Measured values of several laboratories.
Parts stem from different laboratories: compare values within a part only. Substitutions count along the parent as printed.

Study 1
Target: RING finger protein unkempt homolog, zinc fingers 1-6, GST-SBP tag (UNK, Homo sapiens, UniProt Q9C0B0, residues 30-357)
Method: RNA Bind-n-Seq
Form: RNA
Medium: in vitro
Tested at: not given
Setting: RNA with constant flanks, human and mouse sites, ends assumed
Reference: input RNA pool
Direction: higher = stronger binding
Endpoint: bound/input enrichment
Residues (chain): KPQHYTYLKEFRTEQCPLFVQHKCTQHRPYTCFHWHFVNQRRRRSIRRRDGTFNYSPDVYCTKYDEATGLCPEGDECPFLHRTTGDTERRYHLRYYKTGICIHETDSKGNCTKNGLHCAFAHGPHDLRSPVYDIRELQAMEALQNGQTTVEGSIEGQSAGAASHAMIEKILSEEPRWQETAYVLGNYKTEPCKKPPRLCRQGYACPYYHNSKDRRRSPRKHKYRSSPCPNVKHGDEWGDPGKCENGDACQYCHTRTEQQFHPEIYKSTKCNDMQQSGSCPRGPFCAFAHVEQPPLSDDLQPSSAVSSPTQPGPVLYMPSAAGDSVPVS
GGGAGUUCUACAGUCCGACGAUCUGCUCUUGUAGCCUUUGGUUUUUGUUAUUGUAGAGAACAGAUUCUUUAUACACUUUGUAAAAUUUACGCCAAACCCCAGCUCUCGAACUCUUAUUCUCCCUGUAGCCCUUGCACUGUUGCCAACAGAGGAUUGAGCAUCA: 0.919 ratio
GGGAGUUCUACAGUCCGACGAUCUACCUCAGUACCUCAGUAGGAUGCAAGGACUGUGCCUUCUUUGACUCAGCCAGUGCUUGCUAUAGUCAGGCUACAAGCCAAGAGGUCCCCACAGAGUAUUAACAAUAAAUACUUCUGGCCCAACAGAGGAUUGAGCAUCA: 0.0703 ratio
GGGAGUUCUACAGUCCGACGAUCCAGCAAGUAGAGGCCAUUAAGAAAGAGAUGCAGGAAUUGAAGCUAAAUAGCAAUAACUCUGCAUCCCCUCAUCGCUGGCCGGCAGAGCCUUACGGACAAGACCCAGCUCCUGACGGAUAUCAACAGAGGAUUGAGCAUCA: 0.108 ratio
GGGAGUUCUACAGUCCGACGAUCUUGCCGAGUGCAGUCCCCGCAGCCUUCGACGACGCAGUGGAAGAACGAGUGAUCAACGAGGAAUACAAAAUAUGGAAAAAGAACACCCCUUUUCUUUAUGAUUUGGUGAUGACCCAUGCUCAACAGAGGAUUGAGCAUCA: 0.195 ratio
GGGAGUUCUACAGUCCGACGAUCGGAUAUUCUAAAAUUCAGAUUUACUUAACUGAUCCAGACUUUAAGGGUUUUAUACGAAUUAGCUGUUGCCAAUACUGUAAGGUAGAAUUUCAUAUGAACUGCUGGAAAAAGUUAAAAACACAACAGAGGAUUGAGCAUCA: 0.586 ratio
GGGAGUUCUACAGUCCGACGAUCCGCUUCGACGGGUAUGUCAUUGAUGGUGCCACUGCUCUUUGGUGUGCAGCUGGAGCAGGACAUUUUGAAGUUGUUAAACUUCUAGUCAGCCAUGGAGCCAACGUGAACCAUACCACAGUACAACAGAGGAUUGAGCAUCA: 0.163 ratio
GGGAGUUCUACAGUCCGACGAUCAAGGUGCUCUUAUUGCCUCCAGAUGUUUCUGCUUUGGCCACUCAAGCAGAGAUAGAGAGCAUAGUUAAACCCAAAGUUCUUGUGAAAGAAGCUGAGAAAAAACUUCCUUCCGAUACAGAACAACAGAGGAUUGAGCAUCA: 0.242 ratio
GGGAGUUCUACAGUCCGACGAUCCACAAGAUGGAGCAGGAAAUGACCCGGUUACAUCGCAGAGUGUCAGAGGUGGAGGCUGUGCUUAGUCAGAAGGAGGUGGAGCUGAAGGCCUCUGAGACUCAGAGAUCCCUCCUGGAGCAGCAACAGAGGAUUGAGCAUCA: 0.133 ratio

Study 2
Target: ABI1, truncated, D143A, DHFR fusion (Arabidopsis thaliana)
Method: DHFR PCA, deep sequencing
Medium: yeast
Setting: methotrexate growth selection, single substitutions
Together with: (+)-ABA 710 µM
Reference: wild-type fitted maximum
Direction: higher = stronger binding
Endpoint: relative binding score
Parent: PYL1, truncated, DHFR fusion (Arabidopsis thaliana); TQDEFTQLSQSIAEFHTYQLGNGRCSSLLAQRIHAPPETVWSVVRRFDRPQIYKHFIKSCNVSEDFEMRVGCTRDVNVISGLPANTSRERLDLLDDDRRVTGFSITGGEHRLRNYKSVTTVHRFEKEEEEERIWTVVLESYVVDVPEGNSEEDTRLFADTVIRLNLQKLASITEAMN
L138F: 107%
T17F: 88.3%
F56N: 22.2%
S104F: 57.7%
L20A: 102%
V136I: 91.6%
R155I: 97.8%
F124T: 103%

Study 3
Target: CCNE2, cyclin fold, Cln2 fusion (human)
Method: yeast growth competition, sequencing
Medium: yeast
Setting: strong parent motif
Reference: not given
Direction: higher = stronger binding
Endpoint: normalised enrichment score
Parent: viral docking peptide; TSVRRALFTGGSD
F8T: 0.0612
R4D: -0.309
R5T: -0.162
G11D: 4.53
G10S: 4.37
S2Q: 3.33
S12G: 3.76
G11C: 4.24
S12D: 4.68
R5D: -0.24
R5K F8L: 0.217
R4S: 1.13
R5H: 0.27
L7T: 0.179
F8R: 0.185
R5C: 0.435
D13A: 3.73
V3S: 0.179

Study 4
Target: POU, POU domain (Salpingoeca helianthica)
Method: Spec-seq
Form: double-stranded DNA, one strand shown
Medium: in vitro
Tested at: not given
Setting: whole probe, mean of replicates
Reference: not given
Direction: lower = stronger binding
Endpoint: relative binding energy
All sequences stand within: GAGTCGTCTCGTCAGCAC … CCGTAGAGCACTCAGGTC
Target sequence (chain): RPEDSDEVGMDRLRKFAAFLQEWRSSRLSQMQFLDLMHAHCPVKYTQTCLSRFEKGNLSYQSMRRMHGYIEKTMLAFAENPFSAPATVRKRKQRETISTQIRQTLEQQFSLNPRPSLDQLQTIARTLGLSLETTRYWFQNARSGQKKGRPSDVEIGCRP
AAATTAAT: -0.78 ln ratio
TAACTAAT: -0.609 ln ratio
ATGCCCGG: 1.32 ln ratio
ATCGTGAT: 0.891 ln ratio
ACGTTAAT: -0.0749 ln ratio
ATGCGACA: 1.22 ln ratio
ATGCTTTG: 1 ln ratio
ATGTTTAT: 0.115 ln ratio

Excerpt of the above (study 4):
TAACTAAT: -0.609 ln ratio
ATGCCCGG: 1.32 ln ratio
ATCGTGAT: 0.891 ln ratio
ACGTTAAT: -0.0749 ln ratio
ATGCGACA: 1.22 ln ratio
ATGCTTTG: 1 ln ratio
ATGTTTAT: 0.115 ln ratio
